Published values gathered from unrelated publications.
± marks the error that the study gave.
Oprk1: Kappa-type opioid receptor (Oprk1, Rattus norvegicus, UniProt P34975)
UniProt P34975, sequence (whole entry, looked up): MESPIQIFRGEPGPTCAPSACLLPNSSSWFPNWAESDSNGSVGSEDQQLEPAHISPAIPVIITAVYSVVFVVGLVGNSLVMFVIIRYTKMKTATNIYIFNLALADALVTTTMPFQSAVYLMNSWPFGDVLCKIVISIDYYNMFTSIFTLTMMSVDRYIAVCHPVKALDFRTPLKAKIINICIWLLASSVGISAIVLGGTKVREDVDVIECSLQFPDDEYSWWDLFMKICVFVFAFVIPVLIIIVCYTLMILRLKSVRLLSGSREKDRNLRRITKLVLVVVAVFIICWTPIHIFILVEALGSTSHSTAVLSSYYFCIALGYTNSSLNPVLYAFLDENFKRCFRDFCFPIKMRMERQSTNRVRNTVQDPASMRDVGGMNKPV
UniProt P02699, sequence (whole entry, looked up): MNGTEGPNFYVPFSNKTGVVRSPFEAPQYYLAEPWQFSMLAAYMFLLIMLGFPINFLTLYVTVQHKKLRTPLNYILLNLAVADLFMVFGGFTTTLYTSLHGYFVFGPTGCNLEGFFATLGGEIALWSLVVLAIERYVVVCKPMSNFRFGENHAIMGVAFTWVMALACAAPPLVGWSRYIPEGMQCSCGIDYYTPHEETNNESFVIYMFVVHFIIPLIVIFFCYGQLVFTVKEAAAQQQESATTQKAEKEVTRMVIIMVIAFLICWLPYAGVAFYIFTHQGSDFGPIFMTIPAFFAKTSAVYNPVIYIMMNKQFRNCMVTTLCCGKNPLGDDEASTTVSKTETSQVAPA
UniProt Q8R146, sequence (whole entry, looked up): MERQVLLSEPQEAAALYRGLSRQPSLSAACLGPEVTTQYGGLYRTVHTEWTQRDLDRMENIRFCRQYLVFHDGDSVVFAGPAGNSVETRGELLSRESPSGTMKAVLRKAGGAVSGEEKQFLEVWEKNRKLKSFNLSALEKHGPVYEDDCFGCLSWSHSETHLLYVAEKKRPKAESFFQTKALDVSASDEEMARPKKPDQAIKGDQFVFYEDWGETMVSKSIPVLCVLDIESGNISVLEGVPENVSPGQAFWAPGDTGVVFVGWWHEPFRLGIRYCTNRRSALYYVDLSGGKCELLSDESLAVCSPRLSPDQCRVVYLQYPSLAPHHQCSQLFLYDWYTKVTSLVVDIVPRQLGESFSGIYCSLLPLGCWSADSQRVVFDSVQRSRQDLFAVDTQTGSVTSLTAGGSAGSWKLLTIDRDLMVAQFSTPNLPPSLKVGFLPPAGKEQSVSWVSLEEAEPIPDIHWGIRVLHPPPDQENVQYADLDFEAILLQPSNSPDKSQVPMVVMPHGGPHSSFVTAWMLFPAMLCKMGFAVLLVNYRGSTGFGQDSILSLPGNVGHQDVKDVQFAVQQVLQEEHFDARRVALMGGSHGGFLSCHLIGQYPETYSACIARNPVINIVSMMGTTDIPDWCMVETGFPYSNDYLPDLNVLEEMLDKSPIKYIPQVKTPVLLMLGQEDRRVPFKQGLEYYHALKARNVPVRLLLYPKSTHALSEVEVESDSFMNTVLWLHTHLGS
UniProt P0C0V0, sequence (whole entry, unmodified, looked up): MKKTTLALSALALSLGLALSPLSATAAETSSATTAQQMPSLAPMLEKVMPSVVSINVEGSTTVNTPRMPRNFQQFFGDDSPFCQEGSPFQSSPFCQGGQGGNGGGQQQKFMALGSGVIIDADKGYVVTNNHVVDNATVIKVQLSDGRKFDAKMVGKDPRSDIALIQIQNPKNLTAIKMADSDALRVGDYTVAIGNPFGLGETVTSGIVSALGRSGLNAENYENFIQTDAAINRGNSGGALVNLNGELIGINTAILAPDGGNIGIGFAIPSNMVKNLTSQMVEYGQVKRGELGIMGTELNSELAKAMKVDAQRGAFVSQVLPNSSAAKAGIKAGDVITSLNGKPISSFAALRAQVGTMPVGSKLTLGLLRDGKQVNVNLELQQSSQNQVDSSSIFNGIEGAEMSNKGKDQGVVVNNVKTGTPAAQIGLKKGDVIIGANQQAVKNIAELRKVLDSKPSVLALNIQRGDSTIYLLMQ
UniProt O88457, sequence (whole entry, looked up): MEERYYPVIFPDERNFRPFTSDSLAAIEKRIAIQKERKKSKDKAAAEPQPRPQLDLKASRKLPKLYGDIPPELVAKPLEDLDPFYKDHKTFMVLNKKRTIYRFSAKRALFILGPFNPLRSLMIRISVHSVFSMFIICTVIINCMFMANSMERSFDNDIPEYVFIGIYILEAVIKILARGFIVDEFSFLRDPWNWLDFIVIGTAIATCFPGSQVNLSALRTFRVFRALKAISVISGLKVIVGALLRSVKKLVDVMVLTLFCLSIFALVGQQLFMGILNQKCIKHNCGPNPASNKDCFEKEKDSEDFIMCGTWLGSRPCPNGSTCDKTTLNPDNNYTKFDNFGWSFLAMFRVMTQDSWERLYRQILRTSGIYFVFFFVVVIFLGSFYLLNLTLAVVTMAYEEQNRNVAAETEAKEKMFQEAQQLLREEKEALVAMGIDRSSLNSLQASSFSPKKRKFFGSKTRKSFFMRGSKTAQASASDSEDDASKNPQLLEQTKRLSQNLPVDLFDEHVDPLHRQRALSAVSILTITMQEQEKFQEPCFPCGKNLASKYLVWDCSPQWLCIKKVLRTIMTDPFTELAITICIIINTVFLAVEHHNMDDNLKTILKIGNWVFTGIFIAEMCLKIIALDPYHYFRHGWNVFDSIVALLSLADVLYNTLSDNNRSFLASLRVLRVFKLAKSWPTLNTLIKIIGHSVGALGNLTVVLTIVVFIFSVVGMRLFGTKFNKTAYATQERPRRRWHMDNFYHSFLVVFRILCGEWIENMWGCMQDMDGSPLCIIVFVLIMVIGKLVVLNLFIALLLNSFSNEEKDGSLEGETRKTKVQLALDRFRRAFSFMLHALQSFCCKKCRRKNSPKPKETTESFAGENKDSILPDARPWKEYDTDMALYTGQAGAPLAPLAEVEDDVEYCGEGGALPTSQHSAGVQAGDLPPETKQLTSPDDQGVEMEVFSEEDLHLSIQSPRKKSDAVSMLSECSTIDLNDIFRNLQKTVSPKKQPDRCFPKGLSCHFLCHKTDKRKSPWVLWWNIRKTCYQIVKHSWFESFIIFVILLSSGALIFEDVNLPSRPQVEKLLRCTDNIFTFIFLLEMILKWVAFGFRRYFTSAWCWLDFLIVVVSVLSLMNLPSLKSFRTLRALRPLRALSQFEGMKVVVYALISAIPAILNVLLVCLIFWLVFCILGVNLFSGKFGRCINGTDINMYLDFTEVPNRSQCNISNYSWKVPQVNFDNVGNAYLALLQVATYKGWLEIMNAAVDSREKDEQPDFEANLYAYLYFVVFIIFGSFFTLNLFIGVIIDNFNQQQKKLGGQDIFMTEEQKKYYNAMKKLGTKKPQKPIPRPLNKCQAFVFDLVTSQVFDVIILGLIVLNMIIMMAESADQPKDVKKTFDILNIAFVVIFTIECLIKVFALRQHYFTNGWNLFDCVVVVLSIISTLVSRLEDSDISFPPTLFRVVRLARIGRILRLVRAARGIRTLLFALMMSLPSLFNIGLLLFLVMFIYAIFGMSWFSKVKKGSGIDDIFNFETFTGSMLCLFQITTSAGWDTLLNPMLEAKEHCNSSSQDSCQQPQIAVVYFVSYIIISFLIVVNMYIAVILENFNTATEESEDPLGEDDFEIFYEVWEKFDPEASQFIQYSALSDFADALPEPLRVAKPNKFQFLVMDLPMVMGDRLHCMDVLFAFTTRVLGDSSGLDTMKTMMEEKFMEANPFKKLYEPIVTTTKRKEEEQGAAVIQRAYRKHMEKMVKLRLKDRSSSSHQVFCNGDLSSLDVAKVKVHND
UniProt P70343, sequence (whole entry, looked up): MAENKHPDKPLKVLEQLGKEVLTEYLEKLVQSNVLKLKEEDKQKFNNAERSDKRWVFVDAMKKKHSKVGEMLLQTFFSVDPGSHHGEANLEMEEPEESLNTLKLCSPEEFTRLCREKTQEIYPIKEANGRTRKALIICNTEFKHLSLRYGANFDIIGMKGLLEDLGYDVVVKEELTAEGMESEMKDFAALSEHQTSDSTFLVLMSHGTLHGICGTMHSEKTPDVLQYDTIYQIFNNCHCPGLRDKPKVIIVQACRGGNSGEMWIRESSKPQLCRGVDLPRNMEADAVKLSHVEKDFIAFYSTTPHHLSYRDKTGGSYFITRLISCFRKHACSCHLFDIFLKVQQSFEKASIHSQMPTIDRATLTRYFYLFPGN
UniProt P34969, sequence (whole entry, looked up): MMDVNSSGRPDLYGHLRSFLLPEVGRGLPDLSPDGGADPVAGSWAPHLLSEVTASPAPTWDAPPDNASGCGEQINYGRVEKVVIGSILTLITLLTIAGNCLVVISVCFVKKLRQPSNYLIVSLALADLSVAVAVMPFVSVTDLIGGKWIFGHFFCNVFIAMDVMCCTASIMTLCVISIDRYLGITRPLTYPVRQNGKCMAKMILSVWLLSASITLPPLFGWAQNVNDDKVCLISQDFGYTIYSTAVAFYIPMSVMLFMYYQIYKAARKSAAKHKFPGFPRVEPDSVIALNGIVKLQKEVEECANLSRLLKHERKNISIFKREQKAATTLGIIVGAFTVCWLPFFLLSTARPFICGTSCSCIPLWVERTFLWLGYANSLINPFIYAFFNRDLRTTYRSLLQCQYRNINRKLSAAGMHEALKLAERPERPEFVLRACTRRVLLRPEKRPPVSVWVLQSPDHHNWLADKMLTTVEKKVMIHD
UniProt A0R016, sequence (whole entry, looked up): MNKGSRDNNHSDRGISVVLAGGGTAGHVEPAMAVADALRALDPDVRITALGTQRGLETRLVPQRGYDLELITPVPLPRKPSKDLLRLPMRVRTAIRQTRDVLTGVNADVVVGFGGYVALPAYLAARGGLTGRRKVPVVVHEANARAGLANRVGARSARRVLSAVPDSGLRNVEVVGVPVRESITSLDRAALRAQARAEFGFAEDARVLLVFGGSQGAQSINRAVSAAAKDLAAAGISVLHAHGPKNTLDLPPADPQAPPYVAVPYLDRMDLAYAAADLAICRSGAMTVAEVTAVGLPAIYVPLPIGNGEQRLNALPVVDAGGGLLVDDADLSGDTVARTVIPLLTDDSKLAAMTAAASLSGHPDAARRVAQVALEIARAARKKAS

| SMILES | target | assay | test system | setting | how to read | measurement | value |
| --- | --- | --- | --- | --- | --- | --- | --- |
| CC(C)C[C@H](NC(=O)CNC(=O)[C@@H](NC(=O)[C@H](CO)NC(=O)[C@H](CCCCN)NC(=O)[C@H](CC(C)C)NC(=O)[C@H](CC(=O)O)NC(=O)[C@H](CCC(=O)O)NC(=O)[C@H](CC(C)C)NC(=O)[C@@H](NC(=O)C1CC(C)(C)N([O])C1(C)C)C(C)C)C(C)C)C(=O)N[C@@H](Cc1ccccc1)C(=O)O (stereo partly shown) | Rhodopsin, photoactivated (Meta II) (RHO, Bos taurus, UniProt P02699) | EPR |  |  |  | dissociation time constant | 8 min |
| CC(=O)N[C@H]1[C@@H](OC[C@H](NC(=O)CNC(=O)[C@@H]2CCCN2C(=O)[C@H](C)NC(=O)[C@@H]2CCCN2C(=O)[C@@H](N)CCCNC(=N)N)C(=O)N[C@H](C(=O)N[C@@H](C)C(=O)N2CCC[C@H]2C(=O)N2CCC[C@H]2C(=O)N[C@@H](C)C(=O)N[C@@H](Cc2c[nH]cn2)C(=O)NCC(=O)O)[C@@H](C)O[C@H]2O[C@H](CO)[C@H](O)[C@H](O)[C@H]2NC(C)=O)O[C@H](CO)[C@H](O)[C@@H]1O | anti-MUC1 Fab 14 A wild type, murine | SPR |  |  | reference: Glyco-S | ka increase | 1.4 fold |
| C[C@@H]1NC(=O)[C@H](NC(=O)[C@H](Cc2ccccc2)NC(=O)CNC(=O)CNC(=O)[C@H](Cc2ccc(O)cc2)NCc2ccccc2)CC(=O)NC[C@@H](C(=O)N[C@@H](CCCNC(=N)N)C(=O)N2CCC[C@H]2C(=O)N[C@@H](CCCCN)C(N)=O)NC(=O)[C@H](CCCNC(=N)N)NC1=O | Oprk1 | binding |  |  | reference: zyklophin | affinity fold decrease | 18 fold |
| CN(C)c1ncnc2c1ncn2[C@@H]1O[C@@H]2COP(=O)(O)O[C@H]3[C@@H](O)[C@H](n4cnc5c(N(C)C)ncnc54)O[C@@H]3COP(=O)(O)O[C@H]2[C@H]1O | ydaO riboswitch wild type (Bacillus subtilis) | competition gel-shift |  | concentration not given | reference: c-di-AMP, higher = weaker binding | binding affinity fold loss | > 910000 |
| CC(C)CC(O)(CC(C)C)c1cn(C(=O)N2CCCC2)nn1 | Acylamino-acid-releasing enzyme (Apeh, Mus musculus, UniProt Q8R146) | enzyme activity, inhibitor, competitive ABPP | mouse, brain and heart | intraperitoneal, 4 h |  | lowest dose for complete inhibition | 0.4 mg/kg |
| COc1ccc2cc1Oc1ccc(cc1)C[C@H]1c3cc(c(OC)cc3CC[N@+]1(C)Cc1ccc3ccc4cccc5ccc1c3c45)Oc1c(OC)c(OC)cc3c1[C@H](C2)[N@@+](C)(Cc1ccc2ccc4cccc5ccc1c2c45)CC3 | poly(dG)·poly(dC) 18-bp dsDNA | DNA binding, ethidium bromide displacement | phosphate buffer, 10% DMSO | pH 7.2, 25 °C, dsDNA 10 µM, 10 mM NaCl, with: ethidium bromide 5 µM |  | Stern-Volmer constant | 8260 M⁻¹ |
| Cc1ccc(N2CC3CCC(C2)N3C)cc1C(=O)N[C@H](C)c1cc(-c2cnn(C)c2)nc2ccccc12 | USP8 (Homo sapiens, UniProt P40818) | enzyme activity |  | concentration not given |  | inhibition | no inhibition |
| COc1ccc(C[C@@H](NC(=O)Cc2ccccc2)C(=O)N[C@@H](Cc2ccccc2)C(=O)N[C@@H](CCC(N)=O)C(=O)N[C@@H](CC(N)=O)C(=O)N[C@@H](CCCNC(=N)N)C(=O)N2CCC[C@H]2C(=O)N[C@@H](CCCNC(=N)N)C(=O)N[C@@H](Cc2ccc(O)c(I)c2)C(N)=O)cc1 | Vasopressin V1a receptor (Mesocricetus auratus, UniProt A0ABM2Y7A2) | saturation binding | hamster brain sections |  |  | Bmax | 5230 DPM/0.04 mg |
| COC(=O)C1C(OC(c2ccc(Cl)cc2)c2ccc(Cl)cc2)CC2CCC1N2C (single isomer, unassigned) | rat central benzodiazepine site | binding, radioligand displacement |  | inactive if below 75% at 10000 nM, with: [3H]flunitrazepam |  | Ki | inactive |
| O=C(/C=C/c1ccccc1F)c1cc2ccccc2oc1=O | Beta-secretase 1 (BACE1, Homo sapiens, UniProt P56817) | enzyme activity, inhibitor, fluorescence |  | 10 µM |  | remaining activity | 89.1% |
| O=C(O)/C=C/c1ccc(O)cc1 | alpha-amylase | enzyme activity, DNS |  | 250 µg/mL |  | inhibition | 64.5 ± 1.8% |
| Cc1sc2c(c1C)C(c1ccc(NC(=O)c3cc([N+](=O)[O-])ccc3F)cc1)=N[C@@H](CC(=O)OC(C)(C)C)c1nnc(C)n1-2 | BRD4 (Homo sapiens, UniProt O60885) | degrader | Jurkat |  |  | Dmax | 97% |
| CC[C@H](C)[C@H](NC(=O)[C@H](CCC(N)=O)NC(=O)[C@H](CC(C)C)NC(=O)[C@@H](NC(=O)CNC(=O)[C@H](Cc1ccc(O)cc1)NC(=O)[C@H](CC(=O)O)NC(=O)[C@@H](NC(=O)[C@H](CO)NC(=O)CNC(=O)[C@H](CC(=O)O)NC(=O)[C@@H](NC(=O)[C@H](CC(N)=O)NC(=O)[C@H](CCCNC(=N)N)NC(=O)[C@H](CC(N)=O)NC(=O)[C@@H](NC(=O)[C@H](C)NC(=O)[C@H](CCC(N)=O)NC(=O)[C@@H](NC(=O)[C@H](CC(N)=O)NC(=O)[C@H](Cc1ccccc1)NC(=O)[C@H](CC(N)=O)NC(=O)[C@H](CO)NC(=O)[C@H](CCC(=O)O)NC(=O)[C@H](Cc1ccccc1)NC(=O)[C@H](CCCCN)NC(=O)[C@H](C)NC(=O)[C@H](C)NC(=O)[C@H](CO)NC(=O)[C@@H](NC(=O)[C@H](Cc1c[nH]c2ccccc12)NC(=O)[C@H](CC(N)=O)NC(=O)CNC(=O)[C@H](CC(C)C)NC(=O)[C@H](CO)NC(=O)[C@H](Cc1ccc(O)cc1)NC(=O)CNC(=O)[C@H](CCCNC(=N)N)NC(=O)[C@H](Cc1ccc(O)cc1)NC(=O)[C@H](CC(N)=O)NC(=O)[C@@H](N)CC(=O)O)C(C)C)[C@@H](C)O)[C@@H](C)O)[C@@H](C)O)[C@@H](C)O)[C@@H](C)CC)C(=O)O | Periplasmic serine endoprotease DegP (degP, Escherichia coli, UniProt P0C0V0, C83S/C95S/N322C) | FRET |  | 20 µM, with: protein 500 nM |  | cage assembly half-life | 10.8 ± 1.1 s |
| CC(C)[C@@H]1NC(=O)[C@H](CCC(N)=O)NC(=O)[C@@H](Cc2ccc(O)cc2)NC(=O)CSC[C@@H](C(N)=O)NC(=O)[C@H](CC(=O)O)NC(=O)[C@H](CCC(=O)O)NC(=O)[C@H](Cc2c[nH]c3ccccc23)NC(=O)[C@@H]2CCCN2C(=O)[C@H](CO)N(C)C(=O)[C@H](C)NC(=O)[C@H](Cc2c[nH]c3ccccc23)NC(=O)[C@H](Cc2c[nH]c3ccccc23)NC(=O)[C@H](C(C)C)NC(=O)[C@H]([C@@H](C)O)NC1=O | 2,3-bisphosphoglycerate-independent phosphoglycerate mutase (gpmI, Staphylococcus aureus, UniProt Q6GIL5) | thermal stability, thermal shift |  |  |  | ΔTm | 17 °C |
| CCN(Cc1ccccc1)C(=O)CCc1nc(CN2CCN(C(=O)Cc3ccc(OC)c(OC)c3)CC2)no1 | Sodium channel protein type 11 subunit alpha (Scn11a, Rattus norvegicus, UniProt O88457) | whole-cell patch clamp | rat DRG neurons | 300 nM |  | V1/2 of activation | -39.6 ± 1.43 mV |
| CC(=O)N[C@@H](Cc1c[nH]c2ccccc12)C(=O)N[C@@H](CCC(=O)O)C(=O)N[C@@H](Cc1c[nH]cn1)C(=O)N[C@@H](CC(=O)O)C(=O)Nc1ccc2c(C)cc(=O)oc2c1 | Caspase-4 (Casp4, Mus musculus, UniProt P70343) | substrate |  | concentration not given |  | Vmax | 1430 ± 73.6 RFU/min |
| CC(=O)N[C@H]1[C@@H](OP(=O)(O)OP(=O)(O)OC/C=C(/C)CC/C=C(/C)CC/C=C(/C)CC/C=C(/C)CC/C=C(/C)CC/C=C(/C)CC/C=C(/C)CC/C=C(/C)CC/C=C(\C)CC/C=C(\C)CCC=C(C)C)O[C@H](CO)[C@@H](O)[C@@H]1O[C@H](C)C(=O)N[C@@H](C)C(=O)N[C@H](CCC(=O)N[C@@H](CCCCNC(=O)OCCCCCCNC(=S)Nc1ccc(NS(=O)(=O)c2cccc3c(N(C)C)cccc23)cc1)C(=O)N[C@H](C)C(=O)N[C@H](C)C(=O)O)C(=O)O | UDP-N-acetylglucosamine--N-acetylmuramyl-(pentapeptide) pyrophosphoryl-undecaprenol N-acetylglucosamine transferase (murG, Mycolicibacterium smegmatis, UniProt A0R016) | substrate |  | with: UDP-GlcNAc 46.9 µM |  | Km | 13 ± 3 µM |
| C[C@@]12CC[C@H]3[C@@H](CCC4=CC(=O)C=C[C@@]43F)[C@@H]1CCC2=O | AKR1C1 (Homo sapiens, UniProt Q04828) | enzyme activity, inhibitor, absorbance |  | 10 µM, pH 9 |  | inhibition | 7.1% |
| NCCc1c[nH]c2ccc(C(N)=O)cc12 | HTR7 (Homo sapiens, UniProt P34969) | cAMP production | HEK293 expressing human 5-HT7R |  |  | Hill coefficient | > 1 |
| CC(C)C[C@H](NC(=O)[C@H](CCCNC(=N)N)NC(=O)[C@H](Cc1ccccc1)NC(=O)[C@H](Cc1ccccc1)NC(=O)[C@H](Cc1ccccc1)N(C)C(=O)CN)C(=O)N[C@@H](CCCNC(=N)N)C(=O)N[C@@H](CCCNC(=N)N)C(=O)N[C@H](C)C(=O)N[C@@H](CCCNC(=N)N)C(=O)N1CCC[C@H]1C(=O)N[C@@H](CCCCN)C(N)=O | Oprk1 | agonist | CHO cells | 10 µM | reference: dynorphin A(1-13) amide | adenylyl cyclase activity | 75 ± 8% |
| O=C([O-])CN1CCN(CC(=O)NCCN(Cc2ccccn2)Cc2ccccn2)CCN(CC(=O)[O-])CCN(CC(=O)NCCN(Cc2ccccn2)Cc2ccccn2)CC1.[Gd+3] | Albumin, Zn(II)-bound (ALB, Homo sapiens, UniProt P02768) | relaxometry |  | 323 K, with: Zn(II) | reference: 310 K | relaxivity r1 | increased |
| CCCC[C@H](NC=O)C(=O)N[C@@H](CCCC)C(=O)N[C@@H](Cc1c[nH]c2ccccc12)C(=O)N[C@@H](CCC(=O)O)C(=O)N[C@@H](CC(=O)O)C(=O)N[C@@H](Cc1c[nH]c2ccccc12)C(=O)N[C@H](C(=O)NCC(=O)N[C@@H](Cc1c[nH]c2ccccc12)C(=O)N[C@H](C(=O)O)[C@@H](C)CC)C(C)C | FPR1 (Homo sapiens, UniProt P21462, N192K) | receptor downregulation | CHO cells |  |  | Ki/EC50 ratio | > 10 fold |
